Measurements from different studies.
Protocols differ between the studies behind these lines. “And” joins repeats or separate records; there may be more than shown. ± gives the spread as reported.
TLK2: Serine/threonine-protein kinase tousled-like 2 (TLK2, Homo sapiens, UniProt Q86UE8)
Chain of UniProt Q86UE8 (whole entry, looked up): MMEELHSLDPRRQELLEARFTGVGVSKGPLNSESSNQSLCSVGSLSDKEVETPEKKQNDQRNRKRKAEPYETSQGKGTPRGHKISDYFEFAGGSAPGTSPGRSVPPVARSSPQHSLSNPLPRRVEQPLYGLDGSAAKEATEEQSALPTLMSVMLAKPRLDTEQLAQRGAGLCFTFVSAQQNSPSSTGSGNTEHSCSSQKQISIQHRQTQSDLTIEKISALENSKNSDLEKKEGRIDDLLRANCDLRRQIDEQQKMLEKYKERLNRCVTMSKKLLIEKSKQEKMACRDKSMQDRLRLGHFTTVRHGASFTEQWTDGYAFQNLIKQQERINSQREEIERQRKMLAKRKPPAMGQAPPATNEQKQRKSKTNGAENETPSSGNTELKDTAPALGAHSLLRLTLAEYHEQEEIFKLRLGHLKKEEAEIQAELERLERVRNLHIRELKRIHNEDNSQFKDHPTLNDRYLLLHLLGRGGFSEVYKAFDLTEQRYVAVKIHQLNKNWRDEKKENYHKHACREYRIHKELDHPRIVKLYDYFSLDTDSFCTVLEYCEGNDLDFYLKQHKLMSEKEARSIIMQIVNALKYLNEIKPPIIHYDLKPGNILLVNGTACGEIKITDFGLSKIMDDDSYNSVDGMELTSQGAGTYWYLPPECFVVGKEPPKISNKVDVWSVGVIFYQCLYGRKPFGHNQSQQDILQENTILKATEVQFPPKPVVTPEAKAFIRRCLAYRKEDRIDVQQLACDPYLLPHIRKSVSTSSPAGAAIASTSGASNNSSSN
Chain of UniProt Q9Y2J8 (whole entry, looked up): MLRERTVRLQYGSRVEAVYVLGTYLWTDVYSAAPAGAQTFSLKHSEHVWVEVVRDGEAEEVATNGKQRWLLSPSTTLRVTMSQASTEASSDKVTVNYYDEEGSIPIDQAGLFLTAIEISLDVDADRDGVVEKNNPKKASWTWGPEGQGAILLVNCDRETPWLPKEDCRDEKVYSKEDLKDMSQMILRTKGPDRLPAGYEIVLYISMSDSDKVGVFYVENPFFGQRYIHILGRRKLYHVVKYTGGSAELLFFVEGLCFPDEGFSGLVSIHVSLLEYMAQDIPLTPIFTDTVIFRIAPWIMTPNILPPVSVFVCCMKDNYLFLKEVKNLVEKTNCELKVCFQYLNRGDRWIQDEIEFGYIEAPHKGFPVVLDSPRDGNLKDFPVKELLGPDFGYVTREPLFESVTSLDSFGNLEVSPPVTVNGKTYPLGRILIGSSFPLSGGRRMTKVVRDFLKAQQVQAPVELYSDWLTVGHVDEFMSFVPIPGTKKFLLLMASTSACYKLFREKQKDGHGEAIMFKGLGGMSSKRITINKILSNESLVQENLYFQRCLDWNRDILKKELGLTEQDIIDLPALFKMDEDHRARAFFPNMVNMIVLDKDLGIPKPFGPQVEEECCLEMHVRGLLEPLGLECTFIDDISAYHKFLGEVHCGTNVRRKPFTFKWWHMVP
Chain of UniProt Q08499 (whole entry, looked up): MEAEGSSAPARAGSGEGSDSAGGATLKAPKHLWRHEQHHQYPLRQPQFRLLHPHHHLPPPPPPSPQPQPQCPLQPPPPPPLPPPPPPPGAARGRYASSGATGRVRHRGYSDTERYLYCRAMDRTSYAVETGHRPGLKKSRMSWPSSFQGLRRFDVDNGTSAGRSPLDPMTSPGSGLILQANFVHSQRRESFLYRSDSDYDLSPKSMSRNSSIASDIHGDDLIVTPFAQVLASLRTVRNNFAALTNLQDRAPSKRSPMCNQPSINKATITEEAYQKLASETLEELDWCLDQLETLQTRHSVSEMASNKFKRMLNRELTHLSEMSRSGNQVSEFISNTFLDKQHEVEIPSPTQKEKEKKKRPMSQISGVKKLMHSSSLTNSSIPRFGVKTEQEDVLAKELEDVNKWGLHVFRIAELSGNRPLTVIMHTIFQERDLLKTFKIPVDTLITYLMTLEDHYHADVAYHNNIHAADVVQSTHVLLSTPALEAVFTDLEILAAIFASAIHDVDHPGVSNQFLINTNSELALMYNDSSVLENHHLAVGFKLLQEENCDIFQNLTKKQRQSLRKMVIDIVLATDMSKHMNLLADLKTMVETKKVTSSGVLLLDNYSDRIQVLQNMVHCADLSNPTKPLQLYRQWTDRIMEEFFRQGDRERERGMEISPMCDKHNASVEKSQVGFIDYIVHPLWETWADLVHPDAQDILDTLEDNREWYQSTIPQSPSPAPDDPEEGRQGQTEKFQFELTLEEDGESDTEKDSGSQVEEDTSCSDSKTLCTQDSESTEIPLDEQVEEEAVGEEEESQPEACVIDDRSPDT
Chain of UniProt P21554 (whole entry, looked up): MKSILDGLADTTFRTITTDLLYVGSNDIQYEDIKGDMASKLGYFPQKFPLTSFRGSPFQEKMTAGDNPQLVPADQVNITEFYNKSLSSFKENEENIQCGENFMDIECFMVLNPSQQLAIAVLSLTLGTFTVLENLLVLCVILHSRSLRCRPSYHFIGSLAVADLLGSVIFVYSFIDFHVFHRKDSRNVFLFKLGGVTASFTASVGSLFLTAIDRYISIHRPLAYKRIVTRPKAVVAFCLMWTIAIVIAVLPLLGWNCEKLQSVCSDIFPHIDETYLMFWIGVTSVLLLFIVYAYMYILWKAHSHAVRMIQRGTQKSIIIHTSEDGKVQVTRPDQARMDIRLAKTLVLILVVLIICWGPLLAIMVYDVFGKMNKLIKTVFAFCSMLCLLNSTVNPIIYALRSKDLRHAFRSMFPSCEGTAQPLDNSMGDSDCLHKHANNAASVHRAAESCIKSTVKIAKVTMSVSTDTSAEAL
Chain of UniProt P21709 (whole entry, looked up): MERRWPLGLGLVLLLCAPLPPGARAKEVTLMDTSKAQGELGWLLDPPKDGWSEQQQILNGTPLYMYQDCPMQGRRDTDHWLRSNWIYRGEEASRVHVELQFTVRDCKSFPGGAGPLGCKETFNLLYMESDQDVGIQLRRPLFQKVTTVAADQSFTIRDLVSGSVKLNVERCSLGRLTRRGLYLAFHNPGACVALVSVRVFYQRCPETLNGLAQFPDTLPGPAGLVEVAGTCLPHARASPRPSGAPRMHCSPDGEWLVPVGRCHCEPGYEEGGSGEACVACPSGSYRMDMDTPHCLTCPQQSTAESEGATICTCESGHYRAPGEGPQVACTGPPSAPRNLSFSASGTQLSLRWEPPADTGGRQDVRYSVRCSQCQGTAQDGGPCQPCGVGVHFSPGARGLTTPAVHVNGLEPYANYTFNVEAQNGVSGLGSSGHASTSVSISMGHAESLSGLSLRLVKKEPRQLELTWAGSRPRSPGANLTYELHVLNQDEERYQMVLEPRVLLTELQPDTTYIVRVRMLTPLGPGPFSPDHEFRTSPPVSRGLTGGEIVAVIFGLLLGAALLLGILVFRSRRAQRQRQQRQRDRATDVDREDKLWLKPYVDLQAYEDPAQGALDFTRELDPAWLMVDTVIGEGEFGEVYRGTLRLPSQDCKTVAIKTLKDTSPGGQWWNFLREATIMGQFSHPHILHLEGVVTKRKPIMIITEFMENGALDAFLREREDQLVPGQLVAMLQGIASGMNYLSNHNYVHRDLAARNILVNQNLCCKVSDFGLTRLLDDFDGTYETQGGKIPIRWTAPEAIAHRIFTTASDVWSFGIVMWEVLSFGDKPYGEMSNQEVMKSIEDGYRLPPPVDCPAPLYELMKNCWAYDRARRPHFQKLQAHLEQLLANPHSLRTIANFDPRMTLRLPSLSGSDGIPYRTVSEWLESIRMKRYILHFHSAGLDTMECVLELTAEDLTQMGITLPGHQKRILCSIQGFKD
Chain of UniProt Q8WTQ7 (whole entry, looked up): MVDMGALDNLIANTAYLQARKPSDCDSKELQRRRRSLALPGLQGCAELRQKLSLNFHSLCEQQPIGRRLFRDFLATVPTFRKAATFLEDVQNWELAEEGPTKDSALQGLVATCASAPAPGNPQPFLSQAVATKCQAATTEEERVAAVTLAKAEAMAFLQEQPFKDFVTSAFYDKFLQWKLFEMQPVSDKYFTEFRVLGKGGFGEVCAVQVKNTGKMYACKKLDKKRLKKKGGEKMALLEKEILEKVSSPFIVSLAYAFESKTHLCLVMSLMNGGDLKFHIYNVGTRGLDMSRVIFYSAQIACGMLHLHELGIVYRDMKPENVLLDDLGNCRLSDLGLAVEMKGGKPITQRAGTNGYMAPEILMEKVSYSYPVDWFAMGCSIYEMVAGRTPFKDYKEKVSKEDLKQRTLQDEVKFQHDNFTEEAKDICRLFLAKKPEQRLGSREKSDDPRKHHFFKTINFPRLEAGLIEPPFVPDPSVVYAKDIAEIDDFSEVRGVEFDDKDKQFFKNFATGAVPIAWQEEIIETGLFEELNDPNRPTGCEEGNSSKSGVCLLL
Chain of UniProt Q9UPE1 (whole entry, looked up): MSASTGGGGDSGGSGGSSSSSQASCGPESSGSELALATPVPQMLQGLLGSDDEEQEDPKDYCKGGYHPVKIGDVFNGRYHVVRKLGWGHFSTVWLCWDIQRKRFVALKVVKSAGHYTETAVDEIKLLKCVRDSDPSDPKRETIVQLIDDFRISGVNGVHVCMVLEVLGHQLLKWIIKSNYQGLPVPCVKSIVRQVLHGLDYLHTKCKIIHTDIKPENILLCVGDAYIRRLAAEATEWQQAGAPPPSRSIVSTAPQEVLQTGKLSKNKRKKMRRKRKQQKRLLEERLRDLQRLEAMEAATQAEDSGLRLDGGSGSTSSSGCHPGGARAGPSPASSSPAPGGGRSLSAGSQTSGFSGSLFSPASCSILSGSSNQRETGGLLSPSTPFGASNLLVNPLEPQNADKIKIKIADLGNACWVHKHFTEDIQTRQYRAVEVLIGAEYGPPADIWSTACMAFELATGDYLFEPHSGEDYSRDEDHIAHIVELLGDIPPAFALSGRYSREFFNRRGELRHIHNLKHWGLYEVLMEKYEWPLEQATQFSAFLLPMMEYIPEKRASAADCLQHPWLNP

Nc1ccc(/C=C/C(=O)N2CCc3c(oc4c(-c5ccc(F)cc5)cc(-c5ccc(C(=O)N6CCC(F)(F)CC6)cn5)cc34)C2)cn1 — remaining binding (SRSF protein kinase 3 (SRPK3, Homo sapiens, UniProt Q9UPE1); binding, competition with immobilised ligand; 1 µM): 100%
CS(C)(=O)=Nc1ccc(-c2ccc(-c3nc4cc(O[C@@H]5CO[C@H]6[C@@H]5OC[C@H]6O)[nH]c4cc3F)cc2)cc1 — inhibition (TLK2; enzyme activity, inhibitor; 10 µM): 14%
O=C1NC(=O)c2c1c1cc(F)c[n+]3c1c1c2c2cc(O)ccc2[n]1[Ru-4]312([N]=C=S)[S+]3CC[S+]1CC[S+]2CC3 (centres unmarked) — remaining activity (Rhodopsin kinase GRK7 (GRK7, Homo sapiens, UniProt Q8WTQ7); enzyme activity; 100 nM, human enzyme, together with: 10 µM ATP; baseline: untreated): 39%
N[C@H](C(=O)N1CCCC1)C1CCN(c2nccc3c(-c4ncc(Cl)cc4Cl)cccc23)CC1 — kcat (Protein-arginine deiminase type-2 (PADI2, Homo sapiens, UniProt Q9Y2J8); enzyme activity; 0.03932 µM, high-affinity site, together with: Ca2+ 1.5 mM): 1.61 s⁻¹ and 1.62 s⁻¹
CCO[C@H]1[C@H](O)[C@@H](N)[C@@H](O[C@H]2[C@H](O[C@@H]3O[C@H](CO)[C@@H](O[C@H]4O[C@@H](CN)[C@@H](O)[C@H](O)[C@H]4N)[C@H]3O)[C@@H](O)[C@H](N)C[C@@H]2N)O[C@@H]1CO — remaining signal (3',5'-cyclic-AMP phosphodiesterase 4D (PDE4D, Homo sapiens, UniProt Q08499); cell-free assay; 10 µM): 1%
Cc1ccc2c(C(C[N+](=O)[O-])c3cccs3)c(-c3ccccc3)[nH]c2c1 (centres unmarked) — Emax (Cannabinoid receptor 1 (CNR1, Homo sapiens, UniProt P21554); Gαi1-γ2 dissociation, BRET): 100 ± 2.38%
CN(C)[C@H]1C[C@@]23CC[C@@]4(O2)C(=CC[C@]2(C)[C@@H](c5ccc6ccncc6c5)CC[C@H]24)C=C3[C@@H](O)[C@@H]1O — inhibition (TLK2; ATP probe labelling, inhibitor, KiNativ profiling; 0.1 µM): -2.4%
CC(C)[C@H]1NC(=O)C[C@H]2/C=C/CCSSC[C@@H](NC1=O)C(=O)N[C@H](Cc1cccc3ccccc13)C(=O)NCC(=O)O2 — inhibition (Ephrin type-A receptor 1 (EPHA1, Homo sapiens, UniProt P21709); enzyme activity, inhibitor; 10 µM): -6.9%
